# Measured values of several laboratories.
# Parts stem from different laboratories: compare values within a part only. Changes are numbered by the printed parent chain.

# Block 1
# Target: ABI1, truncated, D143A, DHFR fusion (Arabidopsis thaliana, UniProt P49597)
# Method: DHFR PCA, dose-response
# Sample: yeast
# Notes: Hill fit, mean, not affinity
# With: (+)-ABA, dose series
# Direction: lower = more sensitive
# Starting sequence: PYL1, truncated, DHFR fusion (Arabidopsis thaliana, UniProt Q8VZS8); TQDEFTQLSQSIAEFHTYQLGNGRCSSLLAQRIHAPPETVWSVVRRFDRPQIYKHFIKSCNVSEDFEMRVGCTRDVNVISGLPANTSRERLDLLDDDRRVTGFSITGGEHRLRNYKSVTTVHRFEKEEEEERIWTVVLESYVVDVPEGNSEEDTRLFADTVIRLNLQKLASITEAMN
Variant,ABA EC50 [µM]
Q51F,39.9
K58F,31.9
F66D,6.47
M176L,2.52
S171Y,3.3
L28Q,50.6
K116D,748
L138A,432
L94N,340
N114T,247
A35S,7.02
S63H,2.77
K126W,4.16
M68R,34.1
T6H,5.84
V43T,23.9
M68T,8.38
E64H,2.66
R99G,25.9
V142S,2.61
S80R,145
D3Y,12.9
E128R,3.87
E128M,2.89
S104E,98.1

# Block 2
# Target: RING finger protein unkempt homolog, zinc fingers 1-6, GST-SBP tag (UNK, Homo sapiens, UniProt Q9C0B0, residues 30-357)
# Method: RNA Bind-n-Seq
# Form: RNA
# Sample: in vitro
# Concentration: not given
# Notes: RNA with constant flanks, human and mouse sites, ends assumed
# Baseline: input RNA pool
# Direction: higher = stronger binding
# All sequences stand within: GGGAGUUCUACAGUCCGACGAUC … CAACAGAGGAUUGAGCAUCA
# Construct (chain): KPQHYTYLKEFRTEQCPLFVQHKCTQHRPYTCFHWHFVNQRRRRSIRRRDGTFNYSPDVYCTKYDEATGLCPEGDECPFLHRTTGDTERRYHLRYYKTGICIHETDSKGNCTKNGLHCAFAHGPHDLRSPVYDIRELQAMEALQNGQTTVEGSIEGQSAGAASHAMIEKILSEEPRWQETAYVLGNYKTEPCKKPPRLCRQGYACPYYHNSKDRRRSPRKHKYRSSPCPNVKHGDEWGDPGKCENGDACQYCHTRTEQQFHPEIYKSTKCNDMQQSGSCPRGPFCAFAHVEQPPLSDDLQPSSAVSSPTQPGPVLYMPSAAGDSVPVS
Oligonucleotide,bound/input enrichment
UUUCUGGGUUUUACAUAUGUGGCUCCAUCUGUACUUGAAAGUGUGAAAGAAAAGUUUUCCUUUGAACCAAAAAUCCGAUCACCUCGAAGAUUUAUUGGCAGCCCACGAACACCUGUCAGC,0.212 ratio
AUAGAAGCAGAUUUGGGAUAUCCUGGAGGUAAAGCAAGAAUUAUUCAUAAGGAAUCUGAUAUCAUUACUGCGUUUGCUGUUAAUAAGGCAAAUAGAAACUGCAUAGCAAUCGCUUCCAGU,0.415 ratio
UUUGUAGGCUUCCUGGGGUGCUAUGGGGCCAUCCAGGAGUCCCAGUGUCUGCUGGGGACGUUCUUCACCUGCCUUGUGAUCCUGUUUGCCUGUGAGGUGGCUGCAGGCAUCUGGGGCUUC,0.107 ratio
AUCUGAAGACUCUGACACACAGAACAUAGUUUCUGGAGAGUCCUGUGAGCUUCCUUGUUGGAGUCAUUCAGAUCCAGAAAGCAUGAGCUUGUUUGAUGAAUAUUUUAAUGAUGAUUCAAU,0.248 ratio
CCUCCCACCCCAGCUCCUGCAACACAAAUGCCCAGCACACCAGGGUUUGUGGGAUACAAUCCAUACAGUCAUCUCGCCUACAACAACUACAGGCUGGGAGGGAACCCGGGCACCAACAGC,0.163 ratio
CUCCACCCAAGAGGAAAAGAAAGAGAGUUAAACAGAGAAUUAAUACUUACGUAUUUGUGGGUAAUCAGCUUAUCCCUCAGCCUCUAGACAGUGAAGAGGAUGAAAAAAUGGAAGAAGACA,0.164 ratio
GCCUACACCUGAGUCCAGGCAUCCAGCCAGGGCUCCAGCUCGAGGUGACAUGGAGGACAGGAGGCCCCCAGGGCAGAAGCCAGGCCCUGACCUCACCUCUGCUCCUGGGAGAGGAAGCCA,0.0528 ratio
AAUCACUAAACUGUGCCUAAAGAACAUAACUGCCAUAUUAAUGUUUUGGUUUAUAUCCUCUAUAGUAAUAGAAAAACAUUUAAUACUUGUAAUGCUGAUGUGUUAAUUUGAUACCAGUUG,0.786 ratio
CAUGCCCUCAGCUGUGGUCAGGUGACUUCCUGUCCCCUGGCAGCUCUGCUGAGUCCCUGUGUUUGAGCCUCCAGGGAGAAGGGUUUGGGCUGCAUUCUUCUUAUCCCCAUGCACAGAAAC,0.11 ratio
CAGACAGAAGUAGUGAUCCGAGACAUAGAUGAGAGGGCCAUGGAGCUCCUGAUUGACUUUGCAUAUACCUCCCAGAUCACUGUGGAAGAGGGCAAUGUUCAGACUCUCUUGCCUGCUGCU,0.255 ratio
AAUGGUCCGUGUUUGUGCGUGUAUGUAUAUUUAUGGGCAUGGGUGCAUGCUUGGUGUGUAUUGUACAUGUCUGUAUCCAUGUGUCCCUGUACAAAGAUGAUACUCAUGUGUGGGCGUAGG,0.313 ratio

# Block 3
# Target: RNA binding protein fox-1 homolog 2, RRM domain, GST-SBP tag (RBFOX2, Homo sapiens, UniProt O43251-10, residues 100-194)
# Method: RNA Bind-n-Seq
# Form: RNA
# Sample: in vitro
# Concentration: 365 nM
# Notes: natural RNA segment, single round, ends assumed
# Baseline: no-protein control
# Direction: higher = stronger binding
# All sequences stand within: GGGAGUUCUACAGUCCGACGAUC … UGGAAUUCUCGGGUGCCAA
# Target sequence (chain): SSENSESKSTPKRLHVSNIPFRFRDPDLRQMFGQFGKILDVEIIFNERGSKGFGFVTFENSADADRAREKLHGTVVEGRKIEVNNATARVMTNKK
Oligonucleotide,RBNS enrichment (R)
GCAGGGUGUCUCUCCAACAGCCCGACAGGCCUCAUCUUUUUGGUUGGAUACCUUUGAACUCCAUGGUUACGUGUUAGGUCCACAUUUGUGUUUUUUUCUAGCCUACCUAU,0.506
CCGAGCACAGCUGGUCCUACCCCAAGUCAUGGUGUGCUGAGUGACUGACUGAGGGGCCAUUGAGAGCCGGUGGGCUCUGCCAUGGAACCCUUCCGUUGAUUAGCAAUGAC,0.343
UCCCCCUCAACUCCAUACUCAACAGGGAUGCACAGGAUUGCUAACAGAGGGCGGGGCACACCUCAGUUUUCUAUCACCUUCCUACCAGAGGGGAAAGUAACCUGAACUUU,0.391
UAUUACAAAGUCAAUUAAAACUUUUCAUUCAAGGUUUUUGAGCCAAACUAGAAGUUGAGAUUGUAAAACUGCUUUAAGAACUUUAAAGAAAUGAAUAUUUGAUCUCUGAU,0.911
UAUUUGAUGACUGUUUCUUGUGGAAGCCCAAAGUCCACUCUAAGAGCAGAAGAAAUACCAAAAUGUUUCCAAAAUUUUUUUAAAAGCUGAGAUUUCCAGCUUUAUAACCA,0.479
GGCCCUGGAAGGUCCUGGCACACGCAAUUCUUGGGUCUCAUUCCAUCCAGGUUCCAGAGAGAACAUUAGAUCUUAGCUCUUGACAAAACGGAUGGCAGAUACUGGCCUUU,0.182
UGCCACGUUACCUUGAUGCAAAUUUGCCAAAUCUGAUACUGUGAAAAGAUUUGAUAACUUUUCUAAUGCCUGACUAGUAAGUUUUAAAACAUCAUUCUUUAAAAGAAUAG,0.444
GACGGGCACAGACUUGCGUCAUCUCGUUUCCACAGUUGACGUUUUAUAUUACUUUCUCAAAUUAAGUUACCAAAACAAACUGAAGAGCUGAAGCAGGUCUUCCAGACCCU,0.303
GGUGUUGGCAAUGGUCCUGGAGGGAAUGGCCUGGGCGUAGGCUGCCUCCAGCUGCCCGUAACCACCGAUCUGGUCAAAAGCUGGAGGGGUCAGGGUGGAACAGGGACAGU,0.948
GUCGUCUGCCAGAGCAGGGUCUGGGAGGGUCCAUGCAGUUCCCGCUGGUGUGGAGGGAAAUGCCCUGGUCUGGCCUCCGAGCCCCCAGGUCCACCGUCUCCCCUCCCCUC,0.391
AAACUGAAUUUGAAAUGACAAAAUGUCAAGUAUUAAAGCUGGUAUUUAAGAUGCUUGUAAAUAUUAUUUAUGUUUUUAAUUUUGUAAAAUAAAGAUUGCUUUUUAACCAU,0.663
GAAAUUUUUCUUUCUAACCCAGUGGAGGUUAGAAAGAAGUUAUAUUCUGGUAGCAAAUUAACUUUACAUCCUUUUUCCUACUUGUUAUGGUUGUUUGGACCGAUAAGUGU,0.48

# Block 4
# Target: Interferon regulatory factor 7, full length, phosphomimetic (IRF7, Homo sapiens, UniProt Q92985, residues 1-503, S101K/S471D/S472D/S475D/S476D/S477D/S483D/S484D/S487D)
# Method: protein-binding microarray
# Form: double-stranded DNA, one strand shown
# Sample: in vitro
# Concentration: 250 nM
# Notes: 60-bp whole probe
# With: salmon DNA 0.4 mg/ml
# Baseline: random background probes
# Direction: higher = stronger binding
# All sequences stand within: GCCTAGCAC … GTCTTGATTCGCTTGACGCTGCTG
# Target sequence (chain): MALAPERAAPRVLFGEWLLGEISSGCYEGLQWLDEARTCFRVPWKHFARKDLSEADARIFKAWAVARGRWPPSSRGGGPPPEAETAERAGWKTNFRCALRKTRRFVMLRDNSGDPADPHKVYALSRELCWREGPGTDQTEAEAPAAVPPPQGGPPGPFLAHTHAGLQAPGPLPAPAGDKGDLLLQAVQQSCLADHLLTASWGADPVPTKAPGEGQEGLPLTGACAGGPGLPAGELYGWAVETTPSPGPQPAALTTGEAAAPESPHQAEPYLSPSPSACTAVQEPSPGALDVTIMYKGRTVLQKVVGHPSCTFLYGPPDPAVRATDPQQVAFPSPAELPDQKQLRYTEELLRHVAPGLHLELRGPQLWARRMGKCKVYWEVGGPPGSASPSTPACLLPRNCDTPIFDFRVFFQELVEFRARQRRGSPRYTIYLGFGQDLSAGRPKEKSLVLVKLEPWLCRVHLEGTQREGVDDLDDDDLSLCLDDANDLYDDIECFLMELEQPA
Oligonucleotide,log fluorescence [z-score]
GACGGTTACGGTATCGGGACGTGCTAG,0.321
TCAATTCTCAACCCTGGTACTGTGCTA,0.481
CTTTAGAGCAAGAACAGCCTGTGCTAG,-0.302
TGCCCTCTCCATACTTCCCAGTGCTAG,0.715
TCATGTTTCTCAACCATACTGTGCTAG,1.25
CCCGATATGCGGTAAGGGCGCGTGCTA,-0.41
TTAGGTATCGGACTGGGATAGTGCTAG,0.258
GACGGTGTCCTTCTCCTGACGTGCTAG,-0.317
TCATTTCCCAAGTTTATAACTGTGCTA,4.25
TTAGATATTAGTATCGATTAGTGCTAG,1.21
GACGGACTGCTTATCATGACGTGCTAG,-0.49
CAGATGGAATTAAGAAGATGGTGCTAG,-0.0203

# Block 5
# Target: CCNA1, cyclin fold, Cln2 fusion (human)
# Method: yeast growth competition, sequencing
# Sample: yeast
# Notes: weak parent motif
# Baseline: not given
# Direction: higher = stronger binding
# Starting sequence: HIRA docking peptide (human); SLSKRKLELEVET; partner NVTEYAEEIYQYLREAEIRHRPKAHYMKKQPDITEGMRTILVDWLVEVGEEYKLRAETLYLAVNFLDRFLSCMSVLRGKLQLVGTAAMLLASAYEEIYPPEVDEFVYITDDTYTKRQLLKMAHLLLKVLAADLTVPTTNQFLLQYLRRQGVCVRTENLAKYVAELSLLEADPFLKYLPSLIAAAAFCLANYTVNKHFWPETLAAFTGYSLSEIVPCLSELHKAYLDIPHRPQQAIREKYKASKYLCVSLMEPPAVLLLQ
Variant,normalised enrichment score
SLSKRKLALEVET [E8A],0.544
SLSKRKLELEVAT [E12A],0.156
SLSKRKLELEVEA [T13A],0.295
SLSKRKAELEVET [L7A],-0.103
SLSKRKLELEAET [V11A],-0.00766
SLSKRKLEFEVET [L9F],0.562
SLAKRKLELEVET [S3A],0.0943

# Some of these lines once more (block 1):
Variant,ABA EC50 [µM]
Q51F,39.9
S80R,145
L94N,340
T6H,5.84
M68R,34.1
